Experimental data collected from several papers.
A part holds a random share of what one study measured. Values joined by “and” are separate records of one study, mostly repeats; a detail may differ.
Sequence of UniProt Q9UIK4 (whole entry, looked up): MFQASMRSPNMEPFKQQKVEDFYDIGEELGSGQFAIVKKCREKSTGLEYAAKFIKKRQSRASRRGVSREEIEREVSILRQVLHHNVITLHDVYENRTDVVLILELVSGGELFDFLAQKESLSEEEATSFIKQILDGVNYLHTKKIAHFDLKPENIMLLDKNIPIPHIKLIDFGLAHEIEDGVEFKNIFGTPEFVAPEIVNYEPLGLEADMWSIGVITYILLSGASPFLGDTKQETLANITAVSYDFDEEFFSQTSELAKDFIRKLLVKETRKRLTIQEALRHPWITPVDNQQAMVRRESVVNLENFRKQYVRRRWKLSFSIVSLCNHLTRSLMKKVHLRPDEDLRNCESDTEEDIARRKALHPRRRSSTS
Sequence of UniProt Q15831 (whole entry, looked up): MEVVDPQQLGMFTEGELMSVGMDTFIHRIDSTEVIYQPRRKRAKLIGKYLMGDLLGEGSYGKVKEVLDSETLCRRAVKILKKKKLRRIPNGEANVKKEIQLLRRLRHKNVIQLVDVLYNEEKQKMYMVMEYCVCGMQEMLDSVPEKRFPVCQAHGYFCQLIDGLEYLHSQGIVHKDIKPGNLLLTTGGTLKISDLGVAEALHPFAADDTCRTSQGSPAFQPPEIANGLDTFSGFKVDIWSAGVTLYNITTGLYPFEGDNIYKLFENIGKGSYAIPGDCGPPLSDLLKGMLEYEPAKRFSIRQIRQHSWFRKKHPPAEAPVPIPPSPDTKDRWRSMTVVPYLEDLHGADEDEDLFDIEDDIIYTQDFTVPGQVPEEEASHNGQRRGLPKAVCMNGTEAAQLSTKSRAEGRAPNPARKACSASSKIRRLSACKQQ
Sequence of UniProt Q13546 (whole entry, looked up): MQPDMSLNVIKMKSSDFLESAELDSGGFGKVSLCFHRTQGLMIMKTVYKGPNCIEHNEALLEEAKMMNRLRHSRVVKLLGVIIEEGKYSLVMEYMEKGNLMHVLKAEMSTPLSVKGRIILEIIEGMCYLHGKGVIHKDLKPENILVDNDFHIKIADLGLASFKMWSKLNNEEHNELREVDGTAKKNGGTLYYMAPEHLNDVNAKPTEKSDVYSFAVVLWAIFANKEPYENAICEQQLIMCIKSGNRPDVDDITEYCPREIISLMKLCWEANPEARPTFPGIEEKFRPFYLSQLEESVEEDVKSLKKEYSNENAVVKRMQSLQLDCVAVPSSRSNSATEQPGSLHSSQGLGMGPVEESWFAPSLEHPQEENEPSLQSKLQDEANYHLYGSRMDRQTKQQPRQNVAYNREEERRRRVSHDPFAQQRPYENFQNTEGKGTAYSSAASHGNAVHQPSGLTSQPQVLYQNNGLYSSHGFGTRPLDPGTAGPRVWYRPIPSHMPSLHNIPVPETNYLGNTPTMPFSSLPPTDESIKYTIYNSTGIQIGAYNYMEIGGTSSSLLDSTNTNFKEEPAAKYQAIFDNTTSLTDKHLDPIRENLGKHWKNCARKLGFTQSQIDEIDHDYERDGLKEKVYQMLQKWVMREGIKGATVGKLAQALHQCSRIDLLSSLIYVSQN
Sequence of UniProt P00519 (whole entry, looked up): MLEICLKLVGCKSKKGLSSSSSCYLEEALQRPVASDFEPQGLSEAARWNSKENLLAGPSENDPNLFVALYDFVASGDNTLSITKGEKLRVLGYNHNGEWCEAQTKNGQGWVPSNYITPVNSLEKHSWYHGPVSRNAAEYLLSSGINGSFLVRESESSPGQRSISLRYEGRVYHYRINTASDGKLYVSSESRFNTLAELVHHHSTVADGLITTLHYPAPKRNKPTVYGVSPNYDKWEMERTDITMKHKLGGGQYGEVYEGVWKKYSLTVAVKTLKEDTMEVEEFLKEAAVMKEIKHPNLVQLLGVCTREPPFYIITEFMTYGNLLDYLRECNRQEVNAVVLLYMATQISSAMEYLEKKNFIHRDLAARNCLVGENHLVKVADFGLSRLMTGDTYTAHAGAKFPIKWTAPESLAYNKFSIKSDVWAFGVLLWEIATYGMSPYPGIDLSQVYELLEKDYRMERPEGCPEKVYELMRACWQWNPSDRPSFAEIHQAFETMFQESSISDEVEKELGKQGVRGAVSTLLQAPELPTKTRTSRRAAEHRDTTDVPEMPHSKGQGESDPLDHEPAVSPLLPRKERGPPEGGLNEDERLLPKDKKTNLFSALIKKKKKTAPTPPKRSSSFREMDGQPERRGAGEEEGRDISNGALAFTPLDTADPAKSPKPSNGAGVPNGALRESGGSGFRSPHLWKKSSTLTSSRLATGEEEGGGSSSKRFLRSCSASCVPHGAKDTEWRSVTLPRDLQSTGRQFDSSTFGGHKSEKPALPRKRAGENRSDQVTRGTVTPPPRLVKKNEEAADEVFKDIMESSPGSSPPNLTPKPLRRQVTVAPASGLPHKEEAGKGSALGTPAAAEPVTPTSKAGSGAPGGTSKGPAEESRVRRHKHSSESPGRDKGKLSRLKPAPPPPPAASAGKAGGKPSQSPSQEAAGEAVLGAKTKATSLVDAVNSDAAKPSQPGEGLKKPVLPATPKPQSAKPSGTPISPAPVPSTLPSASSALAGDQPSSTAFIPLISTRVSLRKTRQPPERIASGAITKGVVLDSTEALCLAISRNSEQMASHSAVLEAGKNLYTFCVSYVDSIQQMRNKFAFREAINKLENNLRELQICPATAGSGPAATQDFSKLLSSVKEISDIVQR
Sequence of UniProt P10721 (whole entry, unmodified, looked up): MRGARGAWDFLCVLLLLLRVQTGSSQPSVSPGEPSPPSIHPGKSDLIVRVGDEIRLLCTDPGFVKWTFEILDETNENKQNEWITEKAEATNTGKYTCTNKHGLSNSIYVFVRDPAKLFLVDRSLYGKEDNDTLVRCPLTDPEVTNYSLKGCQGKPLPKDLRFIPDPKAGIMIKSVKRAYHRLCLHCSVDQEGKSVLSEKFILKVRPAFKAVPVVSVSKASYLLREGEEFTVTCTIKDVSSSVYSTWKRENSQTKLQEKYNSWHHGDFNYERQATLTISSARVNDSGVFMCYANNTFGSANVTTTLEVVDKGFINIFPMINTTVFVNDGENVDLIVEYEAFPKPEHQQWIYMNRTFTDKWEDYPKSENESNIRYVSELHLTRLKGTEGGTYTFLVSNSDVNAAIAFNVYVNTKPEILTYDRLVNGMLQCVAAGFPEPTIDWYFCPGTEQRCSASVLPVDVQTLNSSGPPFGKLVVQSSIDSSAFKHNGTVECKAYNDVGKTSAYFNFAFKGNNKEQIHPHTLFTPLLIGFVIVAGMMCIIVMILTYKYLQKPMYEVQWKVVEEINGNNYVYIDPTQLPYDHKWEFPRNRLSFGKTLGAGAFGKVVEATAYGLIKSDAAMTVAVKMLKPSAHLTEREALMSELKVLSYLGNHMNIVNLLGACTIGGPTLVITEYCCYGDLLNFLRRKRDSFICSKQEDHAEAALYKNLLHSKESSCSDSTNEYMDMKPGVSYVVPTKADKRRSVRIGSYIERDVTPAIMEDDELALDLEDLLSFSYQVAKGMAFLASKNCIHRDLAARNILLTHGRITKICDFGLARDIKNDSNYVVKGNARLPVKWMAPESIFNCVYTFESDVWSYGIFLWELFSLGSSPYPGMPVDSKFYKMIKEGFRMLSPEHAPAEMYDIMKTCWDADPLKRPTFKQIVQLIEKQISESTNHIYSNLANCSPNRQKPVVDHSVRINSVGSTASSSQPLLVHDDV
Sequence of UniProt P11802 (whole entry, looked up): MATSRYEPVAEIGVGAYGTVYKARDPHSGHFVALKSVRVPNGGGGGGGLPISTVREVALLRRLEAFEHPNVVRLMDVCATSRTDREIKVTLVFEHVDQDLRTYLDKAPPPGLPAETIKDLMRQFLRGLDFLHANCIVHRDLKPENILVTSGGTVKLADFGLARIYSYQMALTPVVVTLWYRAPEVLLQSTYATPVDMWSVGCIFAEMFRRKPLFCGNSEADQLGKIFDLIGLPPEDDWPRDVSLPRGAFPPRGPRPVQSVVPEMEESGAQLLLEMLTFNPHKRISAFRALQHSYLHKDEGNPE
Sequence of UniProt Q13976 (whole entry, looked up): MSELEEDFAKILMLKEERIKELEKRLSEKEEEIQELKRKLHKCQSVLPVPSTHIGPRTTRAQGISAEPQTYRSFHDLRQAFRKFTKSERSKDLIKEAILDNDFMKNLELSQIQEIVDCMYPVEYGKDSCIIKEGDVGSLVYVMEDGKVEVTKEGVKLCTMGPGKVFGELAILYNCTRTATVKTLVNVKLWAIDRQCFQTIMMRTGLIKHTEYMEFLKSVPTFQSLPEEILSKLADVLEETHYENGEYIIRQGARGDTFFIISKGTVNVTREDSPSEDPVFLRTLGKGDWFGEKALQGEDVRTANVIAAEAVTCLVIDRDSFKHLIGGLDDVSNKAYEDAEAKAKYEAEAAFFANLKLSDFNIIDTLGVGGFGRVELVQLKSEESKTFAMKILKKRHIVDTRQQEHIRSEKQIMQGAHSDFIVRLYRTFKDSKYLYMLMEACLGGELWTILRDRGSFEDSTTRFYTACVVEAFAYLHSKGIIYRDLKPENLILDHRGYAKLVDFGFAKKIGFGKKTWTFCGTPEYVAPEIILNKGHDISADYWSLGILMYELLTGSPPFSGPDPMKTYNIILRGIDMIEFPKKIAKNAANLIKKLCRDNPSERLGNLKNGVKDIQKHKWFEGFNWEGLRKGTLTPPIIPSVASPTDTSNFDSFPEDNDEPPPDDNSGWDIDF
Sequence of UniProt Q96GD4 (whole entry, looked up): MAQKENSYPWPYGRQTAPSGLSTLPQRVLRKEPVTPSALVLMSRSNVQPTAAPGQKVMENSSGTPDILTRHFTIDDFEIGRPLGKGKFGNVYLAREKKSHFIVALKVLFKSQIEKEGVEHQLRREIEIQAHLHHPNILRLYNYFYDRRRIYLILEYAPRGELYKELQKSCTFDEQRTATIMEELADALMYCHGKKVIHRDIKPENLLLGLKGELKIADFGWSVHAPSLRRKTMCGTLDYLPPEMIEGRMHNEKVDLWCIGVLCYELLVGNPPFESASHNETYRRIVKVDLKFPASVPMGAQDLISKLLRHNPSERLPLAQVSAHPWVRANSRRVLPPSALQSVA

Series 1 — SMILES: O=C(Nc1ccc(Cl)cc1)c1ccccc1NCc1ccncc1; effect on: enzyme activity; action: inhibitor; tested at: 0.5 µM; reference: control
It gave 84.9% for remaining activity (Cyclin-dependent kinase 5, with p25 (CDK5, Homo sapiens, UniProt Q00535)).
The remaining activity was 99.3% (IKBKB (Homo sapiens, UniProt O14920)).
The remaining activity was 97.1% (PRKACA (Homo sapiens, UniProt P17612)).
For DAPK2 (Homo sapiens, UniProt Q9UIK4): remaining activity read 98.4%.
Tyrosine-protein kinase Lyn, isoform B (LYN, Homo sapiens, UniProt P07948) — remaining activity: 93.7%.
The remaining activity was 93.9% (CAMKK2 (Homo sapiens, UniProt Q96RR4)).
CAMK2D (Homo sapiens, UniProt Q13557) — remaining activity: 101%.
The remaining activity was 90.1% (TGFBR2 (Homo sapiens, UniProt P37173)).
The remaining activity was 99.9% (DAPK1 (Homo sapiens, UniProt P53355)).
IKBKE (Homo sapiens, UniProt Q14164) — remaining activity: 98.9%.
The remaining activity was 104% (Cyclin-dependent kinase 4, with cyclin D1 (CDK4, Homo sapiens, UniProt P11802)).
The remaining activity was 96.1% (GRK3 (Homo sapiens, UniProt P35626)).
It gave 100% for remaining activity (TGFBR1 (Homo sapiens, UniProt P36897)).
The remaining activity was 88.4% (NEK2 (Homo sapiens, UniProt P51955)).
For cGMP-dependent protein kinase 1, isoform beta (PRKG1, Homo sapiens, UniProt Q13976): remaining activity read 92.3%.
It gave 94.7% for remaining activity (STK39 (Homo sapiens, UniProt Q9UEW8)).
It gave 96.8% for remaining activity (OXSR1 (Homo sapiens, UniProt O95747)).
MAPK9 (Homo sapiens, UniProt P45984) — remaining activity: 102%.
It gave 93.5% for remaining activity (STK11 (Homo sapiens, UniProt Q15831)).
PRKCA (Homo sapiens, UniProt P17252) — remaining activity: 96.7%.
For CHEK2 (Homo sapiens, UniProt O96017): remaining activity read 94.5%.
It gave 98.1% for remaining activity (Protein kinase C beta type, isoform beta-I (PRKCB, Homo sapiens, UniProt P05771)).
It gave 96.2% for remaining activity (MAP3K3 (Homo sapiens, UniProt Q99759)).
The remaining activity was 81.8% (STK10 (Homo sapiens, UniProt O94804)).

Series 2 — effect on: cell-free assay; technique: competition with immobilised ligand; tested at: 0.1 µM
SMILES: Cc1cc(C)c(-n2ccn3nc(-c4cccnc4)cc23)cc1NC(=O)c1cc(C#N)cc(S(F)(F)(F)(F)F)c1
It gave 77.1% for remaining binding (RET (Homo sapiens, UniProt P07949, M918T)).
ULK3 (Homo sapiens, UniProt Q6PHR2) — remaining binding: 100%.
It gave 93.9% for remaining binding (NEK6 (Homo sapiens, UniProt Q9HC98)).
For FLT3 (Homo sapiens, UniProt P36888, D835V/ITD): remaining binding read 87.7%.
The remaining binding was 100% (MARK2 (Homo sapiens, UniProt Q7KZI7)).
It gave 61.6% for remaining binding (EGFR (Homo sapiens, UniProt P00533, T790M)).
FGR (Homo sapiens, UniProt P09769) — remaining binding: 84.9%.
ERN1 (Homo sapiens, UniProt O75460) — remaining binding: 68.3%.
Tyrosine-protein kinase ABL1, phosphorylated (ABL1, Homo sapiens, UniProt P00519) — remaining binding: 74.6%.
For RIPK1 (Homo sapiens, UniProt Q13546): remaining binding read 91.5%.
For STK11 (Homo sapiens, UniProt Q15831): remaining binding read 75.9%.
It gave 94.5% for remaining binding (COQ8A (Homo sapiens, UniProt Q8NI60)).
It gave 100% for remaining binding (RIOK1 (Homo sapiens, UniProt Q9BRS2)).
For NEK10 (Homo sapiens, UniProt Q6ZWH5): remaining binding read 100%.
For LIM domain kinase 1 (LIMK1, Homo sapiens, UniProt P53667): remaining binding read 83.6%.
It gave 77.9% for remaining binding (CSK (Homo sapiens, UniProt P41240)).
For EPHA7 (Homo sapiens, UniProt Q15375): remaining binding read 92%.
For EGFR (Homo sapiens, UniProt P00533, A750P/del747-749): remaining binding read 78.7%.
The remaining binding was 72.2% (NEK9 (Homo sapiens, UniProt Q8TD19)).
The remaining binding was 83.4% (STK32C (Homo sapiens, UniProt Q86UX6)).
For MYLK2 (Homo sapiens, UniProt Q9H1R3): remaining binding read 100%.
The remaining binding was 83.5% (LRRK2 (Homo sapiens, UniProt Q5S007)).
For TTK (Homo sapiens, UniProt P33981): remaining binding read 72%.
For DAPK2 (Homo sapiens, UniProt Q9UIK4): remaining binding read 75.8%.

Series 3
Compound: COc1cc(C(=O)OCCCN2CCCN(CCCOC(=O)c3cc(OC)c(OC)c(OC)c3)CC2)cc(OC)c1OC
von Frey, 0.4 g filament; mouse, CFA inflammatory pain; subcutaneous, 10 mg/kg, 1 h post-dose, third injection, day 5 — “paw withdrawal frequency”: 80% and 90% and 60% and 70%.
The “paw withdrawal frequency” was 80% and 70% and 90% (von Frey, 0.4 g filament; mouse, CFA inflammatory pain; intravenous, dose not given, 1 h post-dose, second injection, day 3).
For von Frey, 0.4 g filament; mouse, CFA inflammatory pain; intravenous, dose not given, 3 h post-dose, first injection, day 1: “paw withdrawal frequency” read 90% and 80% and 70%.
von Frey, 0.4 g filament; mouse, CFA inflammatory pain; subcutaneous, 10 mg/kg, 5 h post-dose, first injection, day 1 — “paw withdrawal frequency”: 70% and 60% and 90% and 80%.
It gave 0.32 fraction of stimuli and 0.04 fraction of stimuli and 0.15 fraction of stimuli and 0.17 fraction of stimuli for “paw withdrawal frequency” (von Frey test; mouse, STZ diabetic neuropathy; subcutaneous, 30 mg/kg, second of three doses, 5 h).
It gave 80% and 70% and 60% for “paw withdrawal frequency” (von Frey, 0.4 g filament; mouse, CFA inflammatory pain; subcutaneous, 10 mg/kg, 5 h post-dose, second injection, day 3).
The “paw withdrawal frequency” was 10% and 20% and 0% (von Frey, 0.4 g filament; mouse, CFA inflammatory pain; intravenous, baseline before CFA).
von Frey test; mouse, STZ diabetic neuropathy; subcutaneous, 30 mg/kg, second of three doses, 1 h — “paw withdrawal frequency”: 0.75 fraction of stimuli and 0.1 fraction of stimuli and 0.23 fraction of stimuli and 0.29 fraction of stimuli.
It gave 100% and 90% and 70% and 80% for “paw withdrawal frequency” (von Frey, 0.4 g filament; mouse, CFA inflammatory pain; intravenous, dose not given, 24 h post-dose, first injection, day 1).
The “paw withdrawal frequency” was 80% and 100% and 90% (von Frey, 0.4 g filament; mouse, CFA inflammatory pain; intravenous, dose not given, 5 h post-dose, third injection, day 5).

Series 4 — effect on: binding; tested at: 1 µM
SMILES: Cc1ccc(NC(=O)c2ccnc(C(F)(F)F)c2)cc1-c1cc(OCCO)nc(N2CCOCC2)c1
For MET (Homo sapiens, UniProt P08581, M1250T): remaining binding read 100%.
It gave 100% for remaining binding (NUAK2 (Homo sapiens, UniProt Q9H093)).
For CDK15 (Homo sapiens, UniProt Q96Q40); competition with immobilised ligand: remaining binding read 100%.
It gave 89% for remaining binding (Aurora kinase B (AURKB, Homo sapiens, UniProt Q96GD4); competition with immobilised ligand).
CDC42BPB (Homo sapiens, UniProt Q9Y5S2); competition with immobilised ligand — remaining binding: 88%.
The remaining binding was 100% (PRKD3 (Homo sapiens, UniProt O94806)).
The remaining binding was 92% (KIT (Homo sapiens, UniProt P10721, V559D)).
The remaining binding was 76% (HIPK2 (Homo sapiens, UniProt Q9H2X6); competition with immobilised ligand).
Tyrosine-protein kinase ABL1, non-phosphorylated (ABL1, Homo sapiens, UniProt P00519); competition with immobilised ligand — remaining binding: 58%.
RIPK1 (Homo sapiens, UniProt Q13546) — remaining binding: 100%.

For quick reference, copied from above (series 3):
von Frey, 0.4 g filament; mouse, CFA inflammatory pain; subcutaneous, 10 mg/kg, 1 h post-dose, third injection, day 5 — “paw withdrawal frequency”: 80% and 90% and 60% and 70%.
The “paw withdrawal frequency” was 80% and 70% and 90% (von Frey, 0.4 g filament; mouse, CFA inflammatory pain; intravenous, dose not given, 1 h post-dose, second injection, day 3).
For von Frey, 0.4 g filament; mouse, CFA inflammatory pain; intravenous, dose not given, 3 h post-dose, first injection, day 1: “paw withdrawal frequency” read 90% and 80% and 70%.
von Frey, 0.4 g filament; mouse, CFA inflammatory pain; subcutaneous, 10 mg/kg, 5 h post-dose, first injection, day 1 — “paw withdrawal frequency”: 70% and 60% and 90% and 80%.
It gave 0.32 fraction of stimuli and 0.04 fraction of stimuli and 0.15 fraction of stimuli and 0.17 fraction of stimuli for “paw withdrawal frequency” (von Frey test; mouse, STZ diabetic neuropathy; subcutaneous, 30 mg/kg, second of three doses, 5 h).
It gave 80% and 70% and 60% for “paw withdrawal frequency” (von Frey, 0.4 g filament; mouse, CFA inflammatory pain; subcutaneous, 10 mg/kg, 5 h post-dose, second injection, day 3).
The “paw withdrawal frequency” was 10% and 20% and 0% (von Frey, 0.4 g filament; mouse, CFA inflammatory pain; intravenous, baseline before CFA).
von Frey test; mouse, STZ diabetic neuropathy; subcutaneous, 30 mg/kg, second of three doses, 1 h — “paw withdrawal frequency”: 0.75 fraction of stimuli and 0.1 fraction of stimuli and 0.23 fraction of stimuli and 0.29 fraction of stimuli.
It gave 100% and 90% and 70% and 80% for “paw withdrawal frequency” (von Frey, 0.4 g filament; mouse, CFA inflammatory pain; intravenous, dose not given, 24 h post-dose, first injection, day 1).
The “paw withdrawal frequency” was 80% and 100% and 90% (von Frey, 0.4 g filament; mouse, CFA inflammatory pain; intravenous, dose not given, 5 h post-dose, third injection, day 5).
